Experimental data pooled from the literature.
Parts stem from different laboratories: compare values within a part only. Positions count from the first letter of the parent shown.

Block 1
Target: Sal-like protein 4, full length isoform A (SALL4, Homo sapiens, UniProt Q9UJQ4, residues 1-1053)
Sequence of UniProt Q9UJQ4 (whole entry, looked up): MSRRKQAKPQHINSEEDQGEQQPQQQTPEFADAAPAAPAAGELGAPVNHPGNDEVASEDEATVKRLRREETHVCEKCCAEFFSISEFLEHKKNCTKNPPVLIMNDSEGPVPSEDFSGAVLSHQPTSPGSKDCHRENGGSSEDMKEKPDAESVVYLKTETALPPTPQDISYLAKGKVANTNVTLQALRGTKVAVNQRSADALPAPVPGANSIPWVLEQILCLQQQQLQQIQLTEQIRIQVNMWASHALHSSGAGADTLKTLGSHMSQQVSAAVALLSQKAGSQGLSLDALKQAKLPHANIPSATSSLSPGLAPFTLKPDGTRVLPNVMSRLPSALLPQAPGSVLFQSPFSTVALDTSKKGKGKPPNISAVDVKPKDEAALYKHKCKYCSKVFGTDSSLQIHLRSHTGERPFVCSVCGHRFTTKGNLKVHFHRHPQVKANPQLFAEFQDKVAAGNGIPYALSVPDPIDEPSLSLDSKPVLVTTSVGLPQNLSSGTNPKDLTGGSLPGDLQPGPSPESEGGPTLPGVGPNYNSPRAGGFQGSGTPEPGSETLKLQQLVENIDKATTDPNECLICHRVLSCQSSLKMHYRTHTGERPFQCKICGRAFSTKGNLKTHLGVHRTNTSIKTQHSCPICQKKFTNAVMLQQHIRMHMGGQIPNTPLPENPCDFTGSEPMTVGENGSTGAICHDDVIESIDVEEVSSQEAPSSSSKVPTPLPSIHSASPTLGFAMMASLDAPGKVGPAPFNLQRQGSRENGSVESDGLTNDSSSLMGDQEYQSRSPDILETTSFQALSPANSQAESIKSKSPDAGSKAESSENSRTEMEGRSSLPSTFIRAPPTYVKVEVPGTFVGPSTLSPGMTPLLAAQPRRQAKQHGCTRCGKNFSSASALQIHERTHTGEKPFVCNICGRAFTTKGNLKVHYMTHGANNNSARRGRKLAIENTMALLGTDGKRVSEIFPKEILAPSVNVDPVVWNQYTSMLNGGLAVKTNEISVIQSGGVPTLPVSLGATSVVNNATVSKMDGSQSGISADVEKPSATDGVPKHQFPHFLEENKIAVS
Method: universal PBM
Molecule type: double-stranded DNA, one strand shown
Medium: in vitro
Concentration: 600 nM
Setting: 8-mer, flanks averaged, mean of replicates
Reading: higher = stronger binding
Quantity: E-score
ACGTTATG: 0.333
GGATACAA: 0.0612
GACTCCTC: -0.0741
CCGGTTCG: -0.31
AGGTGCAC: -0.23
ATGGTGCA: 0.00604
TTGCGCAA: 0.103
CGGACGAC: -0.289
CACCCTCC: -0.217
CCACAGAG: -0.129
GCGCAAGA: -0.023
GCAGTCGA: -0.14
GTGGTTTA: 0.035
CCCGAACA: -0.051

Block 2
Target: Ras GTPase-activating protein-binding protein 1, full length (G3BP1, Homo sapiens, UniProt Q13283)
Sequence of UniProt Q13283 (whole entry, looked up): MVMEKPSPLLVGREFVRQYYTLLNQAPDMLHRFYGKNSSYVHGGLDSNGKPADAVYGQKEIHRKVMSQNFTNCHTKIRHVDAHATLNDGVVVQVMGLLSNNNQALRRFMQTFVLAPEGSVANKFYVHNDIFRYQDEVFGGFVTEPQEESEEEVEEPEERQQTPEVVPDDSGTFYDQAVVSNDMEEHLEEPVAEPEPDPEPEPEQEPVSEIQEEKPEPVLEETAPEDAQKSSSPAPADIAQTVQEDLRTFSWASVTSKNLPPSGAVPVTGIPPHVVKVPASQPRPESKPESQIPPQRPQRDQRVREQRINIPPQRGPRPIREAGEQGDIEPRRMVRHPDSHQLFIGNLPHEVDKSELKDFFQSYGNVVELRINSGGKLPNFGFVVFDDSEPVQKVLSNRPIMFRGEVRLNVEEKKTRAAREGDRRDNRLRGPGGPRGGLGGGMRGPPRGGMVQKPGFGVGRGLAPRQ
Method: RNA Bind-n-Seq
Molecule type: RNA
Medium: in vitro
Concentration: 200 nM
Setting: whole 134-nt RNA, ends assumed
Added: 150 mM KCl
Baseline: input library
Reading: higher = stronger binding
Quantity: log2 enrichment
All sequences stand within: GGGAGUUCUACAGUCCGACGAUC … UGGAAUUCUCGGGUGUCAAGG
CCUCAAGUCCUGUGCUACACAUCGUAUGUACCGAAUCGGUGGGUGGGGUGGGGAAAGUAUUAUGUUACGCCGUUCGGAUCUGCACUUCCA: 0.854
CAAGUCCUGUGCUACACAUCGUAUGUACCGAAUCGGUUUGGAAAGGAAAAAAAGGAAAGUAUUAUGUUACGCCGUUCGGAUCUGCACUUC: -0.697
UCAAGUCCUGUGCUACACAUCGUAUGUACCGAAUCGGGGCCGGGCCGGGCCGGGAAAGUAUUAUGUUACGCCGUUCGGAUCUGCACUUCC: 0.137
UCCUCAAGUCCUGUGCUACACAUCGUAUGUACCGAAUCGGGCGGGCGGGCGGAAAGUAUUAUGUUACGCCGUUCGGAUCUGCACUUCCAG: 1.72
AGUCCUGUGCUACACAUCGUAUGUACCGAAUCGGGGUUUGGGGUUUGGGGUUUGGGGAAAGUAUUAUGUUACGCCGUUCGGAUCUGCACU: 0.966
UAACUUUAGAGGAGGAACUGAUGGAUAUGGCAGUGGACGUGGAUUUGGGGAUGGCUAUAAUGGGUAUGGAGGAGGACCUGGAGGUGGCAA: 0.393
UGGGAGGUGGAUUUUGUUUAUUUUUUUAGCUCAUUUCCAGGGGUGGGAAUUUUUUUUUAAUAUGUGUCAUGAAUAAAGUUGUUUUUCAAA: 0.389

Block 3
Target: CCNE2, cyclin fold, Cln2 fusion (human)
Method: yeast growth competition, sequencing
Medium: yeast
Setting: weak parent motif
Baseline: not given
Reading: higher = stronger binding
Quantity: normalised enrichment score
Starting sequence: HIRA docking peptide (human); SLSKRKLELEVET; partner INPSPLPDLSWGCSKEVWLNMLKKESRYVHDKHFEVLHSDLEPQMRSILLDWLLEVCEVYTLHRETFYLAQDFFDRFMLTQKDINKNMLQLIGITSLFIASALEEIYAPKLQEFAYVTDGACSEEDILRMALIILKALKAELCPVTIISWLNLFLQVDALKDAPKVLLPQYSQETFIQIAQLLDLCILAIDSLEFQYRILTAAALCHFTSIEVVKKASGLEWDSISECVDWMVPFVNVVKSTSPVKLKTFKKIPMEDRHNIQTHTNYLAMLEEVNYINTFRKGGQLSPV
V11A: 0.544
L9F: -0.00301
E8A: 0.566
K6A: 0.476
T13A: 0.324
S3A: -0.836
E10A: -0.349

Single results of other studies
PhoQ, residues 284 288 289 292 302 303 TNASYF — fold induction (PhoP, residues 12 14 15 18 19 LWHSL (Escherichia coli, UniProt P23836); Sort-seq, item: YFP reporter; E. coli; PhoQ-PhoP variant library, added: 10 µM Mg2+; baseline: high Mg2+ state, higher = stronger signaling): 18.5

Repeated from above (block 1):
GACTCCTC: -0.0741
CCGGTTCG: -0.31
AGGTGCAC: -0.23
ATGGTGCA: 0.00604
TTGCGCAA: 0.103
